Results gathered from unrelated publications.
Numbered parts are unrelated; each lists some results of a single study.

Block 1
Target: RNA binding protein fox-1 homolog 2, RRM domain, GST-SBP tag (RBFOX2, Homo sapiens, UniProt O43251-10, residues 100-194)
Technique: RNA Bind-n-Seq
Molecule type: RNA
Matrix: in vitro
Concentration: 365 nM
Notes: natural RNA segment, single round, ends assumed
Reference: no-protein control
Reading: higher = stronger binding
Constant ends, left off below: GGGAGUUCUACAGUCCGACGAUC … UGGAAUUCUCGGGUGCCAA
Target sequence (chain): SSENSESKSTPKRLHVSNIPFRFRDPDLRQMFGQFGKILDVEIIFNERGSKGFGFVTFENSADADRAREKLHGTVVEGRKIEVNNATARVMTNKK
For `CCUGCCCCUGGACACCUGCUGACAGCUCCCACACAGAACAGUCUGAGGUGAUGCUGGCUACAGCCCUGGCAGCCCAUGGCAACUCAAAGUGCCUUCCAAACCAAACUGCC`, “RBNS enrichment (R)” read 0.386.
Under “RBNS enrichment (R)”, `AAAUCCUAAUUCAAAGAUGGCUCAUGUGUGAGGGCAUUGAGUUUGAUUUGUUUUCCCUUUGGUCUGGGUUGUGUGGCUUUUGGGGGAUGCGUGUGAGGGGGCUAUGUGUU` is recorded as 2.28.
Under “RBNS enrichment (R)”, `CUAUGGGUGAAACCGGCUCUAGUUCUGUCCCCAGCCCCACCCUCUGGUCUCCUACUCUCUGGCCCUGUGUUUGGGAAAAAUCACUAUUAUGUCUUAAUUCUUUGCCUGUG` is recorded as 0.816.
`UUCAGAUUUAAAAUGAAUAGCUGGACUCUGCUGGCUCAGUCUCCUCUCCUUUUUAACACACUUUCUUAGGUCUAUGGAAACUACAGGGUUGCCACUGAAAUGUUUUUUUA`: “RBNS enrichment (R)” 0.616.
For `GAACCACUUGAGACUGAGACUGUCCCCUCCAGCUGUGCUGUACUUCCAGGUGCGCACUUUAAAGAAAGUGGCCACCAGGUGUGAUGGUGCAGUCCUAUAGUAACCGAGCU`, “RBNS enrichment (R)” read 0.293.
Under “RBNS enrichment (R)”, `CUGCUGGCUCUCCCCCAGCCCCACAUCCCCUCUGGAAGAGAAUGUAAAAUAAACCUGGACACAAGGGACCUUGUCUCUGCGGCCUUUUCCUUGGGGUAGGGGAUGCCUCC` is recorded as 0.398.
`CAGAUUAGGGGCUCCCUGGUUAGAGGGUUGUAAGGUACAGGGUGCUGUCCAGCCUCUGAGUACCAUGUUAUUUCAGCUCCAUGUUGCCCUGCAACAGGAAGCAGGAAGGU`: “RBNS enrichment (R)” 0.255.
Under “RBNS enrichment (R)”, `UGGGAACACCCACACUCAGUGCACCCUGUGGGUGACCCUCCCUACACAGUGCAGAGCAGAGCCCAGGAGGGGCCACAGGCAUCAGUGAACUCUCCUUGCCUAGGAUGGCA` is recorded as 0.309.
`GCCUGAGGUGGCGCAGGGCUCUCCUUCCUGUCCCUUCGAUCUCCUUGAGAAUUAAGAGCUGGCAGCUGCUGAUGGUGUUUCCCAACCCCCCUCACUUCCCAAGACAACCC` — result for “RBNS enrichment (R)”: 0.478.
`GUGGGGAGUCUGGGCUCGGUAGUAACUCUGGGAUAUUUCAAGGAUGGCUUUCUUUUUGACUGUGCUUGGGAGCAAAGUCAGAUGGGCAGCUGGGUGUGUGUUUAGAGCUC` — result for “RBNS enrichment (R)”: 2.56.
`UUCAGAGACUACUUUGUCACUCACUGACCAUGUCUGGUUCCUUCUCUGAACUUCAUUCUCCCCAUAAGCCAAACAAGAACAGACCUCCCCCGCCACCUCCCAGGCACCGU` — result for “RBNS enrichment (R)”: 1.05.
`CUCCAGCGGCAGGGCAUGGUUCUUGGCAGCCUGGUGUCCACACGGUGCAUUCCUGUCCCCCUCGGCCCCAGGCUGGCUCAGCUCUCCAGUGCUGCGGCGCUGUCUUUGCA`: “RBNS enrichment (R)” 1.18.

Block 2
Target: Histone acetyltransferase KAT6A, winged helix 1, GST fusion (KAT6A, Homo sapiens, UniProt Q92794, residues 1-85)
Technique: protein binding microarray
Molecule type: double-stranded DNA, one strand shown
Matrix: in vitro
Concentration: not given
Notes: 8-mer, flanks averaged, mean of 2 arrays, mostly near background
Reference: not given
Reading: higher = stronger binding
Construct (chain): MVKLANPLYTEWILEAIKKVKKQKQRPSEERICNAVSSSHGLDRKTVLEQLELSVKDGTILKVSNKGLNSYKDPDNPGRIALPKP
`CTGATGCA` gave an E-score of 0.0191.
The E-score of `ATTACCTG` is reported as -0.0177.
For `AGTTACGG`, the E-score was 0.276.
`GAGGCAAA` gave an E-score of -0.233.
The E-score of `AGTGCTAG` is reported as -0.105.
For `CCTGGACA`, the E-score was -0.208.
The E-score of `AACGGCTA` is reported as 0.247.
`ACGAGGAG` has an E-score of -0.272.
For `CCGGGTCG`, the E-score was 0.316.
The E-score of `TCATTCAA` is reported as -0.166.
With `ATCAAGAC` the E-score was -0.23.
The E-score of `AGGCATGA` is reported as -0.205.
With `CACAATTA` the E-score was -0.0859.
`ACGGAACC` gave an E-score of 0.282.
`CTCGGGGA` has an E-score of 0.0249.
For `AAGGCCTT`, the E-score was -0.118.
For `CTCAGGAC`, the E-score was -0.111.
For `CCCCTTAG`, the E-score was -0.101.
The E-score of `GAAAGCGA` is reported as 0.0117.
With `AAAGCGGA` the E-score was 0.224.

Block 3
Target: Interferon regulatory factor 3, full length, phosphomimetic (IRF3, Homo sapiens, UniProt Q14653, residues 1-427, S386D/S396D/S398D/S402D/T404D/S405D)
Technique: protein-binding microarray
Molecule type: double-stranded DNA, one strand shown
Matrix: in vitro
Concentration: 2540 nM top
Notes: 60-bp whole probe
Together with: salmon DNA 0.4 mg/ml
Reference: random background probes
Reading: higher = stronger binding
Constant ends, left off below: GCCTAGCAC … GTCTTGATTCGCTTGACGCTGCTG
Target sequence (chain): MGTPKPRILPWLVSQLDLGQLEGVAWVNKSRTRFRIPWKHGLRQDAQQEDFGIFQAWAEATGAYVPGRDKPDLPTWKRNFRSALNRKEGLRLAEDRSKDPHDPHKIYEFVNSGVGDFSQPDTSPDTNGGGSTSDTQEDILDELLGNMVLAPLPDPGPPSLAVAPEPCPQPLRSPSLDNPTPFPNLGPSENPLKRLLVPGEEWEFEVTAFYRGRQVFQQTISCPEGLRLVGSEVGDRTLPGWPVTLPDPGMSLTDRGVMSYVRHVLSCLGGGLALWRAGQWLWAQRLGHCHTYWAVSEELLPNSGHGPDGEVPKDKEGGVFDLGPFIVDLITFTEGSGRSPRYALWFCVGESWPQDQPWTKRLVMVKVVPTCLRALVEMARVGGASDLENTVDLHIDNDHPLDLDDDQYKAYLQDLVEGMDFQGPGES
Under “fitted relative affinity”, `TTAGGTATCCGGTATCGGTTAGTGCTA` is recorded as 2.85 z-score.
For `AAGTAAAATGCAAAGAGGAAGTGCTAG`, “fitted relative affinity” read -0.419 z-score.
Under “fitted relative affinity”, `TCATATATACAAACTAAGACTGTGCTA` is recorded as 0.721 z-score.
Under “fitted relative affinity”, `GACGGACTGGACTTTCGGGACGTGCTA` is recorded as 0.0475 z-score.
Under “fitted relative affinity”, `TCAGGAAACCGGAAAGGCACTGTGCTA` is recorded as 0.304 z-score.
Under “fitted relative affinity”, `GACGGAGTGGGGACTGGGGACGTGCTA` is recorded as -0.91 z-score.
For `GACGATATCGGGAATGGAGACGTGCTA`, “fitted relative affinity” read 0.166 z-score.
For `GACGGACTGGGAGTGGGGACGTGCTAG`, “fitted relative affinity” read -0.723 z-score.
Under “fitted relative affinity”, `GACGGTATCCTTCTCCTTACGTGCTAG` is recorded as 7.02 z-score.
`GACGGTCTCCTTATCCTAACGTGCTAG`: “fitted relative affinity” 2.99 z-score.
For `TTAGGTTACGGTTCCGGTTAGTGCTAG`, “fitted relative affinity” read 2.85 z-score.
For `GACGATTTCATTTTCGAGACGTGCTAG`, “fitted relative affinity” read 3.71 z-score.
`TTAGGTTTCGGATTCGGTTAGTGCTAG` — result for “fitted relative affinity”: 8.44 z-score.
`TTAGATATCGGTCTCGGTTAGTGCTAG`: “fitted relative affinity” 1.72 z-score.
Under “fitted relative affinity”, `TCAAGAAAGTGAAATACCACTGTGCTA` is recorded as -0.407 z-score.
Under “fitted relative affinity”, `GACGATTTCGGCTTTCGAGACGTGCTA` is recorded as 1.64 z-score.
`TCACCGTTTCTTCTAGAACTGTGCTAG` — result for “fitted relative affinity”: 2.41 z-score.
For `GACGGTTTCCTTCTCCGGACGTGCTAG`, “fitted relative affinity” read 9.98 z-score.
For `GACGATATCAGTAACGAGACGTGCTAG`, “fitted relative affinity” read 0.175 z-score.
For `TCAAGCTTGGGTCTGTGACTGTGCTAG`, “fitted relative affinity” read -1.09 z-score.

Block 4
Target: Centromere-binding protein 1, full length, N-terminal tag (CBF1, Saccharomyces cerevisiae, UniProt P17106, residues 1-351)
UniProt P17106, sequence (whole entry, looked up): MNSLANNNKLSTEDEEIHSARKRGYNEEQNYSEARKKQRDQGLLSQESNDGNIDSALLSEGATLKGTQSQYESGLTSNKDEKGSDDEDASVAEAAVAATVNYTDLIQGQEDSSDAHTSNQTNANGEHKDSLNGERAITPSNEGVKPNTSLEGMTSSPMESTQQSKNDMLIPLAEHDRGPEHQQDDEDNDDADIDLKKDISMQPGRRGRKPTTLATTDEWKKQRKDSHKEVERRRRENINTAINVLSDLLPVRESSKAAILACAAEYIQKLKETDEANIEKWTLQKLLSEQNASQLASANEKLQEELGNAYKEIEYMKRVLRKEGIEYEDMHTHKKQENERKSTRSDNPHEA
Technique: protein-binding microarray
Molecule type: double-stranded DNA, one strand shown
Matrix: in vitro
Concentration: 0.8 µM
Notes: whole 60-bp probe, no competitor
Reading: higher = stronger binding
Constant ends, left off below: … GTCTTGATTCGCTTGACGCTGCTG
With `GAATATTAGCAACAGCACGAGCACATAATGTCTTAG` the fluorescence intensity was 723 a.u.
`GAACAACTTCCCGGTGACGAGAAAAAGAAACGTTAG` has a fluorescence intensity of 547 a.u.
The fluorescence intensity of `CTACGATTTGGTAATGCCGTGATGCAACCTCGATTC` is reported as 550 a.u.
`GAAGTGGGTGTCCATGTGATTTAAATGATAAATTAG` has a fluorescence intensity of 2550 a.u.
`GAACAACCGGAAGGGGAGATCACAGACCTTGACTAG` has a fluorescence intensity of 512 a.u.
The fluorescence intensity of `CCTAACTACTATAAGCACGATCAATAGCTTCGTACA` is reported as 535 a.u.
`CTAGTCACGGTCCACCACCAATTGTGGCCTTGTTTC` has a fluorescence intensity of 642 a.u.
For `GAACTTCGTGAAACACGTGGGATACCGGTTAGGTAG`, the fluorescence intensity was 3850 a.u.
For `CTATAGAACGCTGATCAGCTGTGTATAGTTTAATTC`, the fluorescence intensity was 640 a.u.
`GAAGGTATTAGCATGCACGTTTTCTTTCCTTTGTAG` has a fluorescence intensity of 783 a.u.
For `CTATATATTATTCACCTCGGTCACCGCCTGTAATTC`, the fluorescence intensity was 526 a.u.
`CTAGGAAAAACAAGACATCAGGCCCGCACGTTTTTC` gave a fluorescence intensity of 546 a.u.
`GAAAAAACAATACAACGCGTGCCTTTGAAAATGTAG` has a fluorescence intensity of 605 a.u.
For `CTACATATCACTTAGTACGTGATAGTGCCCAAATTC`, the fluorescence intensity was 601 a.u.
The fluorescence intensity of `GAAAACAGAAGTTAGCATGTGTGAGAGTTTACTTAG` is reported as 537 a.u.
The fluorescence intensity of `GAAGTTTTACCCTTCCATGTGGGTCAATTGACTTAG` is reported as 551 a.u.
`GAAGTGTAGCCCCATGTGAGCAAGCCAAACAAGTAG` has a fluorescence intensity of 789 a.u.
The fluorescence intensity of `TGTACGAAGCTATGTCTCCTGTTTATAGTAGTTAGG` is reported as 531 a.u.
With `GAAGTTTCAATAGCGCACGCACTTATACGCCACTAG` the fluorescence intensity was 532 a.u.
For `TGTACGAAGCTATGCGTCGTGCGTATAGTAGTTAGG`, the fluorescence intensity was 490 a.u.
The fluorescence intensity of `CTAATAACACTAACGCACGCTAGAAATGATAGCTTC` is reported as 539 a.u.
With `CCTAACTACTATACACACGAGAGATAGCTTCGTACA` the fluorescence intensity was 504 a.u.
`CTACGATGTATTTACCACGATACTAGCTTTCATTTC` has a fluorescence intensity of 542 a.u.

Repeated from above (block 4):
`CTACGATGTATTTACCACGATACTAGCTTTCATTTC` has a fluorescence intensity of 542 a.u.
For `TGTACGAAGCTATGCGTCGTGCGTATAGTAGTTAGG`, the fluorescence intensity was 490 a.u.
`GAAAAAACAATACAACGCGTGCCTTTGAAAATGTAG` has a fluorescence intensity of 605 a.u.
For `CTATAGAACGCTGATCAGCTGTGTATAGTTTAATTC`, the fluorescence intensity was 640 a.u.
The fluorescence intensity of `GAAAACAGAAGTTAGCATGTGTGAGAGTTTACTTAG` is reported as 537 a.u.
With `GAATATTAGCAACAGCACGAGCACATAATGTCTTAG` the fluorescence intensity was 723 a.u.
`GAACAACTTCCCGGTGACGAGAAAAAGAAACGTTAG` has a fluorescence intensity of 547 a.u.
For `CTACATATCACTTAGTACGTGATAGTGCCCAAATTC`, the fluorescence intensity was 601 a.u.
The fluorescence intensity of `GAAGTTTTACCCTTCCATGTGGGTCAATTGACTTAG` is reported as 551 a.u.
The fluorescence intensity of `CTAATAACACTAACGCACGCTAGAAATGATAGCTTC` is reported as 539 a.u.
